Assay results from different studies.
Numbered parts are unrelated; each lists some results of a single study. Positions count from the first letter of the parent shown.

Study 1
Target: CCNE2, cyclin fold, Cln2 fusion (human)
Technique: yeast growth competition, sequencing
Matrix: yeast
Setting: strong parent motif
Reference: not given
Direction: higher = stronger binding
Starting sequence: PLK5 docking peptide (human); IFRKVGQRLLTQC; partner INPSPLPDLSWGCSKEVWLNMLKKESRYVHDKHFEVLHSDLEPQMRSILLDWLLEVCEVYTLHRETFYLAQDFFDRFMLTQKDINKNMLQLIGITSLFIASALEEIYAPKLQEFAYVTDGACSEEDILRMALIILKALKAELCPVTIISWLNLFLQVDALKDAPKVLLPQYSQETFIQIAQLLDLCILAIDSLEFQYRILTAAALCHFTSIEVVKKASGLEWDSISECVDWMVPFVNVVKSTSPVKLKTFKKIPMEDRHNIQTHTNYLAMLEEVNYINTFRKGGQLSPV
Under “normalised enrichment score”, `L10A` is recorded as 0.914.
Under “normalised enrichment score”, `Q7A` is recorded as 1.17.
Under “normalised enrichment score”, `R8A` is recorded as 1.12.
`C13A`: “normalised enrichment score” 1.48.
For `V5A`, “normalised enrichment score” read 0.417.
Under “normalised enrichment score”, `F2A` is recorded as 0.992.
For `T11A`, “normalised enrichment score” read 0.546.

Study 2
Target: RING finger protein unkempt homolog, zinc fingers 1-6, GST-SBP tag (UNK, Homo sapiens, UniProt Q9C0B0, residues 30-357)
Sequence of UniProt Q9C0B0 (30-357, looked up): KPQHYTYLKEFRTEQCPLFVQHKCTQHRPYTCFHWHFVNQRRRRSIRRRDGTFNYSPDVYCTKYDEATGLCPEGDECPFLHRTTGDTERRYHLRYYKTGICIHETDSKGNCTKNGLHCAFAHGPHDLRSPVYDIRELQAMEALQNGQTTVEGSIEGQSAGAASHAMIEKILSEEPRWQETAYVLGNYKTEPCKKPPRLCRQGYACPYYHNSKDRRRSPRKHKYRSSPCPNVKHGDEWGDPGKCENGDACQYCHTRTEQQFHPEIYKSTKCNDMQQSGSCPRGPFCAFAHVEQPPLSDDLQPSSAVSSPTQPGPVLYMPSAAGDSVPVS
Technique: RNA Bind-n-Seq
Molecule type: RNA
Matrix: in vitro
Tested at: not given
Setting: RNA with constant flanks, human-mouse chimeric sites, ends assumed
Reference: input RNA pool
Direction: higher = stronger binding
Constant ends, left off below: GGGAGUUCUACAGUCCGACGAUC … CAACAGAGGAUUGAGCAUCA
With `AGAAAGCAAAACUUGGAACGAUUUAAGAAAGGAGAUGUAAGAUUCUUGAUUUGCACAGAUGUAGCUGCUAGAGGGAUUGAUAUCCACGGCGUUCCUUAUGUGAUCAACGUCACCCUGCCU` the bound/input enrichment was 0.211 ratio.
The bound/input enrichment of `GCUGAAAAUGAAGAAGAGGCAGCUGAUGUCUGGUACAACCUGGGGCAUGUAGCUGUGGGAAUAGGAGAUACAAACUUGGCCCACCAAUGCUUCAGGCUGGCCCUGGUCCACAACAACCAC` is reported as 0.269 ratio.
For `AUGGAGAAGGAUUCUCUGCCUCGCUUUGUGCGCUCUGAGUUUUAUCAGGAGCUAAUCAAGUAGUCAUCUGGUCAGGCUUCCAAAAGUUGCCCUGUGAGUUGAGUUACAUCCUUUGUAGCA`, the bound/input enrichment was 0.147 ratio.
For `GCAAAGGAUGAUGAGGCGGCAGCUGUUGCCCUUUCCUCUCUCGUUCAUGCUUUGGAUGAGUUAAACAUGGUGGCCAUCGUCCGAUAUGCUUAUGACAAAAGAUCUAAUCCUCAAGUCGGU`, the bound/input enrichment was 0.361 ratio.
`GGACAUCUUGUCAGGAUUUAUGUUCCUGUGAAACAAGUGAACACUCUGAUACACUUCAUCUGCUUGUACAUCUGUAUGAUAGAGAAAUGUAAAUAUGAAUAUAUUUACAAUGUGUCACUU` has a bound/input enrichment of 0.113 ratio.
For `CCCCAAUACCAUUUGCAGGUCUGGAACUGCACUCUCUUUUUUAAAAAACAUGUAUACAUUUUAGGGCUGUAGAUUUACUUUCCUAUUUUCUUUUCCAAUUGCUGACUUUUGAGCACAGAA`, the bound/input enrichment was 4.51 ratio.
The bound/input enrichment of `CACAGAGGCACCACCCCCCCCUCCUCCUUUCCACACCUGCAAACUCUUUUACUUGGGCUGAAUAUUUAGUGUUAAUUCAUCUCAGCUUUGAGGGCUCCUGUGGCAAAUUCCCGGAUUAAA` is reported as 1.09 ratio.
With `UUCAAAGAAAAGGGCAGCUGUGUCAUUACUUGGGAGACUCUGGGGGAGGGAAAUUCUGUUCUUUUGUUUAAUUUUCCCCCAAAUGAAGCCAAAGUGUGUGUUGAAGAAGGAAGAAUGAAU` the bound/input enrichment was 0.224 ratio.

Study 3
Target: RNA binding protein fox-1 homolog 2, RRM domain, GST-SBP tag (RBFOX2, Homo sapiens, UniProt O43251-10, residues 100-194)
Technique: RNA Bind-n-Seq
Molecule type: RNA
Matrix: in vitro
Tested at: 365 nM
Setting: natural RNA segment, single round, ends assumed
Reference: no-protein control
Direction: higher = stronger binding
Constant ends, left off below: GGGAGUUCUACAGUCCGACGAUC … UGGAAUUCUCGGGUGCCAA
For `AAAAAAAAUCAUGUUUUAAAUGUUAUGAUUUUGUGUUAGGCUGAAUUUAUAGCUGUCCUUGACCUCGGGUUGGACACACCUGCAACAUGAAUAGUAAGACCUAAUAAUUC`, “RBNS enrichment (R)” read 0.462.
For `ACUGCCACUCUAUGAGAAAACCCUCUGCCCUUUACUGCUGCUGGCUUGCCGUCUGGGAUGCUCAGUAGAGUCAAGGGACCCAGCAGAGAUGCAUGAGACAAGAUGGAUUG`, “RBNS enrichment (R)” read 0.57.
Under “RBNS enrichment (R)”, `CUAUGGUUAUAGACACCCACUUCAGACAUUACCAAGAGUCGAUCACUGACUUAAAAAUUUUAAUUUCUAUAGUUAAGAUUUACAACAUAAUAUAGAGUGAAAGUUAACAU` is recorded as 0.43.
`AAAAGCAUAAAGGGCUGCCUAGUACCGCCCGUUCCCUCCACGCCAGGUGGAGACUACAAGGAGACUGGGCGAACCACACCGUCUCCCUGCAUGGCCUUCCCUUCCUCUAG` — result for “RBNS enrichment (R)”: 0.434.
For `AUCACAGGUGAUUCACACGUACACACAUCCACACCCACACGUGCAGCCUGAAGUGACGUCCACAGAACCCGCCCUUGUCUUUGUACAUCGUAUGUACACUGCAAUCAUUU`, “RBNS enrichment (R)” read 0.412.
Under “RBNS enrichment (R)”, `UUAGGACAAAGUCAGCCAGACACCUUGUACUGGGCACGCGUCAGACUGCAGCCAGUCCGUUUCCUUUCUUUAGCCAGCCAUCCUGGUACUGUAGUUUAGGGGUUGAUGGU` is recorded as 0.5.
`AAUUUAAAUAUAAAUUGACCAUUGAUGAUAUCCAGUUUUUCAUUUUUUACCUGUAUUGCAUUUUCCCCCUAGAGAAAUAGAUCAAAAGAGCACAAGAGUAUGCGUACAUA`: “RBNS enrichment (R)” 0.867.
`UCAUAUUAGAUUCAUUAUUGAAAAAAAGUCAUCAAGUCAAUUUUAUGUGUCAAAAAUUAUUUCACUUGUAUGUGACUAUUAUCUUAACUUGUAACAAUUUAUGUUUUACA` — result for “RBNS enrichment (R)”: 0.843.

Study 4
Target: Ras GTPase-activating protein-binding protein 1, full length (G3BP1, Homo sapiens, UniProt Q13283)
Sequence of UniProt Q13283 (whole entry, looked up): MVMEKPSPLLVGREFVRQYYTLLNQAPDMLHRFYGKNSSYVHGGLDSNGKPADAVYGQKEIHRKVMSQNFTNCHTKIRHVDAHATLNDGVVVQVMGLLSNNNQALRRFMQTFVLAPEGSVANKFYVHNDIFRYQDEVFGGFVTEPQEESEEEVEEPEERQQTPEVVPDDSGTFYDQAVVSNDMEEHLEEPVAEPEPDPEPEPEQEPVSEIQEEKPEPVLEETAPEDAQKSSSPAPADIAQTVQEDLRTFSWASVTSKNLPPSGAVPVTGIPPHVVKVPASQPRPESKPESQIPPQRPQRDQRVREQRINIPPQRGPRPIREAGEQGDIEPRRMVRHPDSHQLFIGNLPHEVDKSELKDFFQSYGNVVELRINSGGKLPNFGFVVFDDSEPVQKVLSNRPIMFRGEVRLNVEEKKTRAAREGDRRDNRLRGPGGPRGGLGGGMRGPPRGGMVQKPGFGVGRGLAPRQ
Technique: RNA Bind-n-Seq
Molecule type: RNA
Matrix: in vitro
Tested at: 200 nM
Setting: whole 134-nt RNA, ends assumed
Added: 150 mM LiCl
Reference: input library
Direction: higher = stronger binding
Each molecule: 7-deaza-guanosine replaces G
Constant ends, left off below: GGGAGUUCUACAGUCCGACGAUC … UGGAAUUCUCGGGUGUCAAGG
With `CUCAAGUCCUGUGCUACACAUCGUAUGUACCGAAUCGGUGGUUUUUUUGGAGGAAAGUAUUAUGUUACGCCGUUCGGAUCUGCACUUCCA` the log2 enrichment was 0.987.
The log2 enrichment of `UCAAGUCCUGUGCUACACAUCGUAUGUACCGAAUCGGUUUGGGUUUGGGUUUGGAAAGUAUUAUGUUACGCCGUUCGGAUCUGCACUUCC` is reported as -0.334.
With `CCUGUGCUACACAUCGUAUGUACCGAAUCGGGGAAAAAAAGGGGAGGGGAAAAAAAGGGGAAAGUAUUAUGUUACGCCGUUCGGAUCUGC` the log2 enrichment was 0.989.
For `UAACUUUAGAGGAGGAUCUGAUGGAUAUGGCAGUGGACGUGGAUUUGGGGAUGGCUAUAAUGGGUAUGGAGGAGGACCUGGAGGUGGCGA`, the log2 enrichment was -0.0665.
`UGGCCCUGGUGGCAUGCGGGGAGGAAGAGGUGGCCUCAUGGAUCGUGGUGGUCCCGGUGGAAUGUUCAGAGGUGGCCGUGGUGUAGACAG` gave a log2 enrichment of -0.634.
`CCUCAAGUCCUGUGCUACACAUCGUAUGUACCGAAUCGGAGGAAAAAGGUGGAAAGUAUUAUGUUACGCCGUUCGGAUCUGCACUUCCAG` has a log2 enrichment of -0.682.
`CACAGACAACACGCACCCACACAGACACAGAGGGAAGGGGUUGGGAUGGGGACAGGGUGCACAGCAGGGCGGGGGAGGACCCCAGCCCCU` gave a log2 enrichment of 0.881.
`GUCCUGUGCUACACAUCGUAUGUACCGAAUCGGGAAAAAGGGGAAAAAGGGAAAAAGGAAAGUAUUAUGUUACGCCGUUCGGAUCUGCAC` has a log2 enrichment of 0.000112.
